Assay results gathered from unrelated publications.
Compare with care: the assays were run in different laboratories. ± gives the spread as reported.

O=C(O)c1ccoc1S(=O)(=O)NCc1cc(-c2ccccc2)no1 — DLS scattered light intensity (colloidal aggregate formation, dynamic light scattering; 50 mM potassium phosphate buffer; 200 µM, pH 7.0, 1% DMSO; higher = more aggregation): 1.44e+06 counts/s
CNC(=O)c1ccc(-c2cnc3ncc(Cc4ccc5ncccc5c4)n3n2)cc1F — non-cardiac chest pain incidence (all grades) (CTCAE v4.0, any causality; human cancer patients; oral, dose not given, dose escalation): 11%
CC(C)n1c(Nc2cccnc2)nc2cnc(Nc3ccc(N4CCN(C)CC4)cc3)nc21 — subjects with adverse event (measured: at least one TEAE; healthy male subjects; oral, 100 mg, study, with: itraconazole): 78.6%
Cc1ccc(C(=O)N(CCCN)C(c2nc3snc(C)c3c(=O)n2Cc2ccccc2)C(C)C)cc1 (stereo not drawn) — discontinuation due to adverse events (patients; intravenous, dose not given, all doses): 5.1%
CC(C)(Sc1ccncc1-c1ccc(C#N)c2ccccc12)C(=O)O — fraction excreted in urine (0-24 h) (human, urine; oral, 10 mg, with: febuxostat 40 mg): 1.53%
CNCCOC12CC3(C)CC(C)(CC(Cn4ncc(-c5ccc(N6CCc7cccc(C(=O)Nc8nc9ccccc9s8)c7C6)nc5C(=O)O)c4C)(C3)C1)C2 — dP/dt at 50 change (beagle dog, male, anaesthetised; intravenous bolus, 0.03 mg/kg, 120 min; baseline: baseline): -10%
COc1ccc([C@@H](O)c2cc(-c3ncnc4cc(N5CCOCC5)ccc34)c(F)cc2Cl)nn1 — AUC(0-12) (human, plasma; oral, 100 mg twice daily, single dose, geometric mean): 1370 ng·h/mL
C[C@@H](Nc1cc(F)cc(F)c1)c1cc(C(=O)N(C)C)cc2c(=O)cc(N3CCOCC3)oc12 — AUC(0-12) (human; oral, 120 mg twice daily, vistusertib alone, geometric LSM): 4410 ng·h/mL
N#Cc1ccc2c(c1)[C@H]1CCCN(C(=O)c3ccc4[nH]cnc4c3)[C@H]1C2 — minimum ACTH level (human; 80 mg, day 7): 3.1 pmol/L
COc1ccnc(C(=O)NC(CO)C(=O)O)c1O (racemic) — Freundlich coefficient KF (soil adsorption; clay loam soil; pH 7.2, organic carbon 4.4 %): 6.07 mL/g
CCC1(C)CC(OC(=O)CSc2nnc(N)[nH]2)C2(C)C(C)CCC3(CCC(=O)C32)C(C)C1O (stereo not drawn) — HC50 (haemolysis; sheep erythrocytes; 1 h, pH 7.5): > 128 µg/mL
OC[C@H]1O[C@@H](c2ccc(Cl)c(Cc3ccc(O[C@H]4CCOC4)cc3)c2)[C@H](O)[C@@H](O)[C@@H]1O — change in eGFR (Japanese type 1 diabetes patients, blood; 10 mg, day 28; baseline: baseline): 0.11 mL/min/1.73 m²
[O]=[Co].[O]=[Co][O][Co]=[O] — haemoglobin (Crl:CD(SD) rat female, blood; oral, 220 mg Co/kg/day, 90 days, repeated dose): 10.1 mmol/L
COc1cc2nccc(Oc3ccc(NC(=O)c4cc5c(n(-c6ccccc6)c4=O)CCCC5=O)nc3)c2cc1OC — patients with drug-related serious TEAEs (human, relapsed/refractory AML; oral, dose not given, all dose groups combined): 5%
CC(C(=O)NCC(=O)NCC(CNC(=O)CNC(=O)C(C)N1CCN(CC(=O)[O-])CCN(CC(=O)[O-])CCN(CC(=O)[O-])CC1)(CNC(=O)CNC(=O)C(C)N1CCN(CC(=O)[O-])CCN(CC(=O)[O-])CCN(CC(=O)[O-])CC1)CNC(=O)CNC(=O)C(C)N1CCN(CC(=O)[O-])CCN(CC(=O)[O-])CCN(CC(=O)[O-])CC1)N1CCN(CC(=O)[O-])CCN(CC(=O)[O-])CCN(CC(=O)[O-])CC1.[Gd+3].[Gd+3].[Gd+3].[Gd+3] (stereo not drawn) — intact compound share (HPLC-ICP-MS; cynomolgus monkey, plasma; up to 8 h; baseline: total Gd): > 99%
FC(F)(F)c1ccc(CNc2ccc(Cc3c[nH]c4ncc(Cl)cc34)cn2)cn1 — treatment-related adverse events (measured: peripheral oedema; human, advanced solid tumours, all patients; oral, 1000 mg/day, any grade): 10%
C/C(O)=C(\C#N)C(=O)Nc1ccc(C(F)(F)F)cc1 — blood concentration (CD-1 mice female, whole blood; oral, 30 mg/kg leflunomide daily, 8 h, after dose 10): 314 ± 111 µM
O=C(CCCN1CCC(O)(c2ccc(Cl)cc2)CC1)c1ccc(F)cc1 — QTc interval (male Hartley guinea pig, anaesthetized; intravenous infusion, 1 mg/kg, 10 min infusion, post-infusion): 401 ± 0.2 ms
c1ccc(-c2nc(N3CCC(c4ccccn4)C3)c3ccccc3n2)nc1 (stereo not drawn) — blood concentration (female Balb/c mice, blood; intravenous, 2 mg/kg, 1 h, mean, with: 1-aminobenzotriazole co-dosed): 1370 ng/mL
Cc1cc(N2CCc3c(c(C)nn3CC34CCC(NC(=O)[C@@H]5COCCN5)(CC3)CC4)C2)c2cnn(C)c2n1 — blood concentration (129/Sv mice, blood; oral, 15 mg/kg, 3 h): 0.71 ± 0.085 µM
Cl.[2H]C([2H])([2H])CC(=O)c1cnc(NC(=O)C2CC2)cc1Nc1cccc(-c2ncn(C([2H])([2H])[2H])n2)c1OC — Ctrough (human, fed, multiple dose; oral, 20 mg twice daily, liquid formulation, day 7, geometric mean): 81.9 ng/mL
COC(=O)[C@H](CCSC(F)(F)F)NS(=O)(=O)c1cccc(Cl)c1O — DLS scattered light intensity (colloidal aggregate formation, dynamic light scattering; 50 mM potassium phosphate buffer; 200 µM, pH 7.0, 1% DMSO; higher = more aggregation): 646000 counts/s
Cn1cc(-c2ccc(-c3cncc(Cl)c3N3CCC4(CCNC4=O)CC3)cc2)cn1 — log2 fold change (COLO 205; gene expression, microarray, measured: HSPA1B mRNA; concentration not given, 6 h; baseline: untreated cells): 4.31
CC(C)NCC(O)c1ccc(NS(C)(=O)=O)cc1 (racemic) — QTc interval (male Hartley guinea pig, anaesthetized; intravenous infusion, 1 mg/kg, 10 min infusion, post-infusion): 369 ± 0.8 ms
O=S(=O)(NC(CCc1ccccc1)C(F)(F)F)c1cccc(Cl)c1O (stereo not drawn) — DLS scattered light intensity (colloidal aggregate formation, dynamic light scattering; 50 mM potassium phosphate buffer; 200 µM, pH 7.0, 1% DMSO; higher = more aggregation): 292000 counts/s
Cc1cc(Nc2ccc(S(F)(F)(F)(F)F)cc2)n2nc(C(C)(F)F)nc2n1 — adverse event Thrombocytopenia (Plasmodium falciparum malaria patients; oral, 250 mg): 0%
CNC(=O)c1cc(Oc2ccc(NC(=O)Nc3ccc(Cl)c(C(F)(F)F)c3)c(F)c2)cc[n+]1[O-] — metabolite to parent AUC ratio (Oatp1b2 knockout mice, plasma; oral, molecular weight corrected, with: regorafenib single dose): 12%
CCCCCCCCCCCCCCCC(=O)N[C@@H](CCC(=O)NCCCC[C@@H]1NC(=O)[C@H]([C@@H](C)CC)NC(=O)[C@@H](NC(=O)[C@@H]2CCCN2C(=O)[C@H](Cc2ccccc2)NC(=O)[C@H](Cc2c[nH]cn2)NC(=O)[C@@H](NC(=O)[C@H](CC(=O)O)NC(=O)CC(C)C)[C@@H](C)O)CSSC[C@@H](C(=O)N[C@@H](CCCCN)C(N)=O)NC(=O)CNC(=O)[C@H](CCCCN)NC(=O)[C@H](CO)NC(=O)[C@H](CCCNC(=N)N)NC(=O)[C@@H]2CCCN2C(=O)[C@H](CCC(=O)O)NC(=O)[C@H](Cc2ccccc2)NC1=O)C(=O)O — CL/F (healthy volunteers, plasma; subcutaneous, 60 mg single, lyophilised formulation): 24.7 ± 10.5 mL/min
CCOc1c([C@H](C)n2nc(C)c3c(N)ncnc32)cc(Cl)c(F)c1[C@@H]1CNC(=O)C1 — Cmax (human, indolent lymphoma, plasma; oral, 30 mg, day 15): 2990 nM
O=C(COc1ccc(Cl)cc1)NC12CC(c3nnc([C@H]4C[C@@H](OC(F)(F)F)C4)o3)(C1)C2 — adverse event incidence (measured: Fatigue; human; oral, 200 mg once daily, 14 days): 28.6%
Cn1cc(Nc2nccc(-c3ccc4c(c3)CN(C3COC3)CC[C@H]4NC(=O)c3cn(C(C)(C)C)nn3)n2)cn1 — plasma cell count change (human, whole blood; 300 mg twice daily, day 14; baseline: pre-dose baseline): 96.9%
CC(C)(C(=O)N1CCOc2c(C#N)cncc2C1)C(F)F — subjects with TEAE (measured: blood and lymphatic disorders; human, both sexes; oral, 20 mg twice daily, 14 days, multiple ascending dose): 0%
COC(=O)c1cc(C)cc(NS(=O)(=O)c2cc(Cl)cc(Cl)c2O)c1 — DLS scattered light intensity (colloidal aggregate formation, dynamic light scattering; 50 mM potassium phosphate buffer; 200 µM, pH 7.0, 1% DMSO; higher = more aggregation): 881000 counts/s
COc1ccc(NC(=O)N2CCCCN3[C@H](COCCC(=O)O)[C@H](c4ccc(C#Cc5ccccc5)cc4)[C@@H]3C2)cc1 — Vss (CD-1 mouse; intravenous, dose not given): 1 L/kg
C[C@@H](Oc1ccc(S(C)(=O)=O)cc1C(=O)N1C[C@@H]2C[C@]2(c2cc(C(F)(F)F)on2)C1)C(F)(F)F — fraction excreted in urine at steady state (young healthy humans, urine; oral, 50 mg once daily, 0 to 24 h, multiple dosing): 5.69%
CC(=O)c1cc(C(=O)N[C@@H](C)Cn2ccc(-c3ccc(C#N)c(Cl)c3)n2)[nH]n1 — AUC(0-tlast) (human, fasted, plasma; oral solution, 300 mg 14C-darolutamide, geometric mean): 93400 ng·h/mL
CC#CC(=O)N1CC[C@@H](n2c(=O)n(-c3ccc(Oc4ccccc4)cc3)c3c(N)ncnc32)C1 — Tmax, median (human, fasting, plasma; oral, 160 mg once daily, cycle 1 day 1): 2.85 h
CCCCc1ccc(C#Cc2ccc(OCC)cc2)cc1 — concentration (measured: compound; human pregnant women, male fetuses, cord serum; dose not given, paired maternal-cord samples, mean): 0.56 ng/mL
N[C@@H]1c2ccccc2OC12CCN(c1cnc3c(N4CCCc5ncccc54)n[nH]c3n1)CC2 — AUC(0-tau) (patients advanced solid tumours, plasma; oral, 150 mg once daily, cycle 1 day 15): 12300 ng·h/mL
Cc1ccc(Sc2ccccc2N2CCNCC2)c(C)c1 — participants with TEAE (measured: Somnolence; healthy adult men; oral, 10 mg single dose): 0%
CCC(C)n1ncn(-c2ccc(N3CCN(c4ccc(OCC5COC(Cn6cncn6)(c6ccc(Cl)cc6Cl)O5)cc4)CC3)cc2)c1=O (stereo not drawn) — trough plasma concentration (human, plasma; oral, dose not given, day 14 predose, geometric mean): 128 ng/mL
Cc1nc(-c2cnc(NC(C)C)n(C)c2=O)ccc1Oc1ccnc(-c2cnn(C)c2)c1 — half-life (Beagle dog, male, plasma; oral, 3 mg/kg, crossover study, mean): 637 min
C=CC[C@@H]1/C=C(\C)C[C@H](C)C[C@H](OC)[C@H]2O[C@@](O)(C(=O)C(=O)N3CCCC[C@H]3C(=O)O[C@H](/C(C)=C/[C@@H]3CC[C@@H](O)[C@H](OC)C3)[C@H](C)[C@@H](O)CC1=O)[C@H](C)C[C@@H]2OC — plasma K+ level (Wistar Kyoto rat, male, plasma; ip, 0.5 mg/kg/day, day 18): 5.4 ± 0.5 mmol/L
O=C(CCc1nncn1-c1ccccc1)NCc1nocc1C(=O)O — DLS scattered light intensity (colloidal aggregate formation, dynamic light scattering; 50 mM potassium phosphate buffer; 200 µM, pH 7.0, 1% DMSO; higher = more aggregation): 3.14e+06 counts/s
O=C(Nc1nc2cccc(-c3ccc(CN4CCS(=O)(=O)CC4)cc3)n2n1)C1CC1 — treatment-emergent adverse events (measured: paraesthesia; human rheumatoid arthritis patients; oral, 150 mg once daily, 4 weeks, regardless of relatedness): 0%

Repeated from above:
CCOc1c([C@H](C)n2nc(C)c3c(N)ncnc32)cc(Cl)c(F)c1[C@@H]1CNC(=O)C1 — Cmax (human, indolent lymphoma, plasma; oral, 30 mg, day 15): 2990 nM
C[C@@H](Nc1cc(F)cc(F)c1)c1cc(C(=O)N(C)C)cc2c(=O)cc(N3CCOCC3)oc12 — AUC(0-12) (human; oral, 120 mg twice daily, vistusertib alone, geometric LSM): 4410 ng·h/mL
Cc1ccc(Sc2ccccc2N2CCNCC2)c(C)c1 — participants with TEAE (measured: Somnolence; healthy adult men; oral, 10 mg single dose): 0%
O=C(Nc1nc2cccc(-c3ccc(CN4CCS(=O)(=O)CC4)cc3)n2n1)C1CC1 — treatment-emergent adverse events (measured: paraesthesia; human rheumatoid arthritis patients; oral, 150 mg once daily, 4 weeks, regardless of relatedness): 0%
CC(C)NCC(O)c1ccc(NS(C)(=O)=O)cc1 (racemic) — QTc interval (male Hartley guinea pig, anaesthetized; intravenous infusion, 1 mg/kg, 10 min infusion, post-infusion): 369 ± 0.8 ms
CNC(=O)c1cc(Oc2ccc(NC(=O)Nc3ccc(Cl)c(C(F)(F)F)c3)c(F)c2)cc[n+]1[O-] — metabolite to parent AUC ratio (Oatp1b2 knockout mice, plasma; oral, molecular weight corrected, with: regorafenib single dose): 12%
CC(C)(C(=O)N1CCOc2c(C#N)cncc2C1)C(F)F — subjects with TEAE (measured: blood and lymphatic disorders; human, both sexes; oral, 20 mg twice daily, 14 days, multiple ascending dose): 0%
